Results collected from several papers.
Lines come from different studies, so protocols differ. ± marks the error that the study gave.
Chain of UniProt Q16620 (whole entry, looked up): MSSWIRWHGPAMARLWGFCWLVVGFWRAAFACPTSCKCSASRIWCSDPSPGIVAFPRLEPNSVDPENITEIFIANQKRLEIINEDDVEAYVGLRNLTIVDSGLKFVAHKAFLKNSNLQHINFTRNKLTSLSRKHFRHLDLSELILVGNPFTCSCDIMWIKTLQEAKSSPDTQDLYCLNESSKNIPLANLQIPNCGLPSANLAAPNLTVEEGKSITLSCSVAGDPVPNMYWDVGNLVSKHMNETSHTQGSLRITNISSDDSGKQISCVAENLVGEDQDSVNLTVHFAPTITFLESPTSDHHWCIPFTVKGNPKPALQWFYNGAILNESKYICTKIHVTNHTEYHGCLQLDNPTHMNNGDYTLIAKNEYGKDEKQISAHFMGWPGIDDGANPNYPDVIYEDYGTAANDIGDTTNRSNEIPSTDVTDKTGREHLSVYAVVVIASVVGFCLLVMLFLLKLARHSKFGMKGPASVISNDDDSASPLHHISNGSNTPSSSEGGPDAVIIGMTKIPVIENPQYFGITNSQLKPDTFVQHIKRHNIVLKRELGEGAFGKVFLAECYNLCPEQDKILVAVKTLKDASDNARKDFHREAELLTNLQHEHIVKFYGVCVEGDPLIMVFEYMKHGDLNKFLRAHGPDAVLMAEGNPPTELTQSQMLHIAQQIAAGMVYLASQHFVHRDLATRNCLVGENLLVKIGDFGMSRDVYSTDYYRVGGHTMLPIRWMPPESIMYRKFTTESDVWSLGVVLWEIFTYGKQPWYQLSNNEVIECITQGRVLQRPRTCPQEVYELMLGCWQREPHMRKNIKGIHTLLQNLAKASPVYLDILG
Chain of UniProt P20813 (whole entry, looked up): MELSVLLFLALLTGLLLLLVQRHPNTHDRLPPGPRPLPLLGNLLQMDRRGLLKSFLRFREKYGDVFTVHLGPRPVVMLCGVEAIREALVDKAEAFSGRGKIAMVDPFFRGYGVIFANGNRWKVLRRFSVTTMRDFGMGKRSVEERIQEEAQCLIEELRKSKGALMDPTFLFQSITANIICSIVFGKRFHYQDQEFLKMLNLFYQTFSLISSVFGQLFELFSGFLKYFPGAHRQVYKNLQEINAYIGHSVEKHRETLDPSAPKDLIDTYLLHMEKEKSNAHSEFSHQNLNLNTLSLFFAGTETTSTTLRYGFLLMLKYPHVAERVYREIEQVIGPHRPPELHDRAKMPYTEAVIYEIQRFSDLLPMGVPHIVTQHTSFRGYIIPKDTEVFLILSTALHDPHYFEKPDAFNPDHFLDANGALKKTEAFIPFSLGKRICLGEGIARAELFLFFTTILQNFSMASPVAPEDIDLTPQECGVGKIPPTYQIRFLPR
Chain of UniProt P10635 (whole entry, looked up): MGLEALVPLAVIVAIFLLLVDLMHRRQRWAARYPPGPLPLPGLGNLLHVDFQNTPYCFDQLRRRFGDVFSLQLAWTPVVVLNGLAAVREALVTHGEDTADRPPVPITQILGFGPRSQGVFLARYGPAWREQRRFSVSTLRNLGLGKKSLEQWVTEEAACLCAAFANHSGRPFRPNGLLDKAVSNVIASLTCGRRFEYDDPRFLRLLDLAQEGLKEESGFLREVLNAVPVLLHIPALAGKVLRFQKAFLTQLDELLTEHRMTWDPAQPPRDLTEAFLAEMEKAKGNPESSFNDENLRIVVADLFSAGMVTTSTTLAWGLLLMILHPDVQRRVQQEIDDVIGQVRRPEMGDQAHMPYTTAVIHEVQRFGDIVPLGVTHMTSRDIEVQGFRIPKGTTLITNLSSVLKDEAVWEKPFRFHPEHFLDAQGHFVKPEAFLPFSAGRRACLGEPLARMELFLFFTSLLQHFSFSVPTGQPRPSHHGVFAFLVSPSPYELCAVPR
Chain of UniProt O88693 (whole entry, looked up): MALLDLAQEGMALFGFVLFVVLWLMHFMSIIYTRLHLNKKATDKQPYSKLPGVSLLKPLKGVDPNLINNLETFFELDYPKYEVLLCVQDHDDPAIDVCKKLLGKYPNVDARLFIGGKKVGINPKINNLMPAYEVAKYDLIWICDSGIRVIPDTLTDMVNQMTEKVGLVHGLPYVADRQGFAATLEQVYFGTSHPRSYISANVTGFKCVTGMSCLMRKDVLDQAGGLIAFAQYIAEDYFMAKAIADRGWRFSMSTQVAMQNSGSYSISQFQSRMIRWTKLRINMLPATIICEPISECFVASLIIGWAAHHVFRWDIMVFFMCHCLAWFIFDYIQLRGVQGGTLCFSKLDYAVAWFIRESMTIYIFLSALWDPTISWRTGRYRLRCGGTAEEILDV
Chain of UniProt P35869 (whole entry, looked up): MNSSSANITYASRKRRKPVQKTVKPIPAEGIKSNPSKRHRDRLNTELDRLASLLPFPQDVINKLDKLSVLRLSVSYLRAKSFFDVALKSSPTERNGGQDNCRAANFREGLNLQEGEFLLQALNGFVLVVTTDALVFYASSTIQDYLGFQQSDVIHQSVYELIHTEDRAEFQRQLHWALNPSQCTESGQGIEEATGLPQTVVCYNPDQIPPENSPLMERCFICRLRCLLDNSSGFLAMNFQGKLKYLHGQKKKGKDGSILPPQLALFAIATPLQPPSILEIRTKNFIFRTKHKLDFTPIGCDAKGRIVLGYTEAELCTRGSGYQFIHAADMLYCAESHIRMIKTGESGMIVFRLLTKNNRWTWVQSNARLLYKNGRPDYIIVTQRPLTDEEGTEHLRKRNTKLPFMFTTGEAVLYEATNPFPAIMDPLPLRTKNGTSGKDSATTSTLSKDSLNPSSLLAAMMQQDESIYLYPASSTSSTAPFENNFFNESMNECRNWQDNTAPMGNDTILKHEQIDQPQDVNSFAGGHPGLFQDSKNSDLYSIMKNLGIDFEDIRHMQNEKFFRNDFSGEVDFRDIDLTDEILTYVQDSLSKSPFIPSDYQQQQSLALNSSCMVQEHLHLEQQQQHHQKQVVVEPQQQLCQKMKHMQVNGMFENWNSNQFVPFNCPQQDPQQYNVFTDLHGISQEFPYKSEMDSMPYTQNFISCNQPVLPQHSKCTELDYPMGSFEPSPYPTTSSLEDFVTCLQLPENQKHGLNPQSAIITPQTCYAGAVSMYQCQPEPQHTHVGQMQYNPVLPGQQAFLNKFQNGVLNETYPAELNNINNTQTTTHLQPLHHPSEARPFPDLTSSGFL

O=C(CC1CCOCC1)Nc1ccc([C@H]2[C@@H](F)[C@@H](F)C[C@@H](F)[C@H]2F)cc1  hepatic clearance (liver microsome stability; dog liver microsomes; 1 µM): 7.3 mL/min/kg
C=C(NC(=O)c1csc(-c2nc3c(cc2O)-c2nc(cs2)C(=O)NC(C(C)O)C(=O)NC(=C(C)OC)c2nc(cs2)C(=O)NC2c4nc(cs4)C(=O)NC(COC(=O)c4c5c6c(cccc6n4O)COC(=O)C(OC4CC(C)(O)C(N(C)C)C(C)O4)C2OC5)c2nc-3cs2)n1)C(N)=O (stereo not drawn)  volume of distribution (Sprague-Dawley rat, female, plasma; intravenous infusion, 2 mg/kg single dose): 6.2 L/kg
O=C(Nc1ccc([C@H]2[C@@H](F)[C@@H](F)C[C@@H](F)[C@H]2F)cc1)C1CC1(F)F (stereo partly drawn)  hepatic clearance (liver microsome stability; dog liver microsomes; 1 µM): 12 mL/min/kg
CCN(CC)CC#CCNc1ccnc2cc(Cl)ccc12  revertants per well (Salmonella typhimurium; mini-Ames test; TA98; 1000.0 µg/well, with rat liver S9): 10
CC(C)(C)COCCOCCN1C[C@H](O)[C@@H](O)[C@H](O)[C@@H]1CO  IC50 (Ugcg (Mus musculus, UniProt O88693); enzyme activity, inhibitor, fluorescence): 12.1 µM
COC(=O)CC[C@@H](NC(=O)[C@@H](Cc1ccc(OP(=O)(O)O)cc1)NC(=O)[C@@H](Cc1ccccc1)NC(=O)[C@@H](Cc1ccccc1)NC(=O)Cc1ccc2ccccc2c1)C(=O)OC  ester hydrolysis (carboxylesterase; substrate; 200 µM, 1 h, pH 7.4, 37 °C, with: carboxylesterase 1 U/mL): 19.4%
C[n+]1ccc(/C=N/NC(=O)c2cncc(C(=O)N/N=C/c3cc[n+](C)c4ccccc34)n2)c2ccccc21  ΔTm (22CTA telomeric G4-DNA antiparallel; FRET melting; 1 µM, K10 buffer, DNA 0.2 µM, with: ds26 10 µM): 14.4 ± 0.1 °C
O=C(CN1CCCCC1)Nc1ccc([C@H]2[C@@H](F)[C@@H](F)C[C@@H](F)[C@H]2F)cc1  hepatic clearance (cryopreserved rat hepatocytes; 1 µM): 34 mL/min/kg
COc1cccc(OC)c1-c1cc(C(=O)NC2(C(=O)O)C3CC4CC(C3)CC2C4)nn1-c1ccc(C(=O)N(C)CCOCCOCCN(C)C(=O)[C@H](CCCCNC(=O)[C@H](CC(C)C)NC(=O)C2OC2C(=O)O)NC(=O)CN2CCN(CC(=O)[O-])CCN(CC(=O)[O-])CCN(CC(=O)[O-])CC2)cc1C(C)C.[177Lu+3] (mixture of isomers)  tracer uptake (HT-29 tumour model; host not given, pancreas; 4 h, tumour-bearing): 0.6 %ID/g
CNS(=O)(=O)Nc1nccc(Cc2c(C)c3ccc(Oc4ncccc4F)cc3oc2=O)c1F  IC50 (BCP-1; cell viability; 7 days): > 1 µM
O=C(c1ccc([C@H]2[C@@H](F)[C@@H](F)C[C@@H](F)[C@H]2F)cc1)N1CCC(F)CC1  hepatic clearance (liver microsome stability; mouse liver microsomes; 1 µM): 74 mL/min/kg
N#C[C@@H]1CCCN1C(=O)CNC(=O)c1ccnc2ccc(OCCCN3CCN(C(=O)CCc4ccc(O)c(CN5CCN6CC(=O)[O][Al-]([18F])([O]C(=O)C5)[O]c5ccc(CCC(=O)N7CCN(CCCOc8ccc9nccc(C(=O)NCC(=O)N%10CCC[C@H]%10C#N)c9c8)CC7)cc5C6)c4)CC3)cc12 (stereo partly drawn)  tracer uptake (U-87 MG tumour model; host not given, muscle; 1 h, tumour-bearing): 2.81 %ID/g
COC(=O)c1cccc(C(=O)c2c(C)[nH]c3ccccc23)n1  activity at 10 µM (AHR (Homo sapiens, UniProt P35869); reporter gene, agonist, XRE luciferase; HepG2; 10 µM; baseline: ITE): 41%
C=CC(=O)Nc1cccc(Cn2ncc3cnc(Nc4cnn(CCOC)c4)nc32)c1  binding (human ABL1(E255K)-phosphorylated; KINOMEscan; 100 nM; baseline: control): 6.1%
C=C1CC[C@H](OCCCNC(=O)CCOCCOCCOCCOCCOCCOCCOCCOCCOCCOCCOCCOCCOCCOCCOCCOCCOCCOCCOCCOCCOCCOCCOCCOCCOCCOCCOCCOCCOCCOCCOCCOCCOCCOCCOCCOCCNC(=O)CCN2C(=O)CC(SC[C@H](NC(=O)[C@H](Cc3ccccc3)NC(=O)[C@H](CC(N)=O)NC(=O)[C@H](Cc3c[nH]cn3)NC(=O)[C@@H](NC(=O)[C@H](CC(=O)O)NC(=O)[C@H](CCC(N)=O)NC(=O)[C@H](CC(C)C)NC(=O)[C@H](CCCCN)NC(=O)[C@H](CCCCN)NC(=O)[C@H](CCCNC(=N)N)NC(=O)[C@H](CC(C)C)NC(=O)[C@H](Cc3c[nH]c4ccccc34)NC(=O)[C@H](CCC(=O)O)NC(=O)[C@@H](NC(=O)[C@H](CCCNC(=N)N)NC(=O)[C@H](CCC(=O)O)NC(=O)[C@H](CCSC)NC(=O)[C@H](CO)NC(=O)[C@H](CC(N)=O)NC(=O)[C@H](CC(C)C)NC(=O)[C@H](Cc3c[nH]cn3)NC(=O)[C@H](CCCCN)NC(=O)CNC(=O)[C@H](CC(C)C)NC(=O)[C@H](CC(N)=O)NC(=O)[C@H](Cc3c[nH]cn3)NC(=O)[C@H](CCSC)NC(=O)[C@H](CC(C)C)NC(=O)[C@H](CCC(N)=O)NC(=O)[C@@H](NC(=O)[C@H](CCC(=O)O)NC(=O)[C@H](CO)NC(=O)[C@@H](NC(=O)[C@@H](N)CO)C(C)C)[C@@H](C)CC)C(C)C)C(C)C)C(=O)O)C2=O)C/C1=C/C=C1\CCC[C@]2(C)[C@@H]([C@H](C)CCCC(C)(C)O)CC[C@@H]12 (stereo partly drawn)  MRT (rat, plasma; subcutaneous, 30 µg/kg, single dose): 15.9 h
C[n+]1ccc(/C=N/NC(=O)c2cccc(C(=O)N/N=C/c3cc[n+](C)c4ccccc34)n2)c2ccccc21  ΔTm (22CTA telomeric G4-DNA antiparallel; FRET melting; 1 µM, K10 buffer, DNA 0.2 µM, with: ds26 10 µM): 17.2 ± 1.2 °C
CNC(=O)C1CCCN(C(=O)C2CC3CCC2N3C(=O)[C@@H]2C[C@@H](O)CN2C(=O)NCc2cccc(Cl)c2F)C1 (mixture of isomers)  remaining activity (Cytochrome P450 2D6 (CYP2D6, Homo sapiens, UniProt P10635); enzyme activity, inhibitor, time-dependent inhibition; 5.56 µM, preincubated without NADPH; baseline: negative control): 99.1%
CCn1nc(Cl)c2c1-c1cnc(N)c(c1)O[C@H](C)c1cc(F)ccc1-c1nn(C)cc1C2  IC50 (NTRK2 (Homo sapiens, UniProt Q16620); enzyme activity, inhibitor; with: 1 mM ATP): 0.026 µM
CC(C)C[C@@H]1NC(=O)[C@H](CO)NC(=O)[C@H](CC(=O)O)NC(=O)[C@@H]2CCCN2C(=O)[C@H]2CCCN2C(=O)[C@H](C(C)C)NC(=O)[C@H](CC(=O)O)NC(=O)[C@H](CC(N)=O)NC(=O)[C@H](CCCNC(=N)N)NC(=O)[C@H]([C@@H](C)O)NC(=O)[C@H](C(C)C)NC(=O)CCNC(=O)CCNC(=O)[C@H](Cc2ccccc2)NC(=O)[C@H](C(C)C)NC(=O)[C@H](CC(C)C)NC1=O  peptide amount per protein (HEK-293T; subcellular fractionation LC-MS; cytoplasmic fraction; 20 µM, 24 h): not detected
CC(C)C[C@H](NC(=O)[C@@H](CCCCNC(=O)[C@@H](Cc1ccccc1)NC(=O)CCCCCNC(=O)CN1CCN(CC(=O)O)CCN(CC(=O)O)CCN(CC(=O)O)CC1)NC(=O)[C@H](Cc1ccc(O)cc1)NC(=O)[C@H](CO)NC(=O)[C@H](Cc1c[nH]c2ccccc12)NC(=O)[C@H](Cc1c[nH]cn1)NC(=O)[C@@H]1CCC(=O)N1)C(=O)N[C@@H](CCCNC(=N)N)C(=O)N1CCC[C@H]1C(=O)NCC(N)=O [indium-111 labelled]  tissue uptake (female athymic nude mice, kidneys; intravenous, 0.037 MBq, 0.5 h): 8.14 ± 1.1 %ID/g
C=CC(=O)Nc1cc(Nc2nccc(-c3cn(C)c4ccccc34)n2)c(OCC(F)(F)F)nc1N(C)CCN(C)C  contribution to substrate depletion (Cytochrome P450 2B6 (CYP2B6, Homo sapiens, UniProt P20813); substrate; 3 µM, 60 min, 2B6 isoform, liver abundance-normalized): 1.49%
CS(=O)(=O)c1ccc(-c2ccc(C3CCCCC3)cc2)cn1  hepatic clearance (liver microsome stability; mouse liver microsomes; 1 µM): 65 mL/min/kg
O=C1C2CC3CC1CC(C(=O)N1CCN(c4ccc([N+](=O)[O-])c5ncccc45)CC1)(C3)C2  mean revertant colonies (Salmonella typhimurium; Ames test; TA1535; 0.78 µg/well, without S9): 6 colonies/well
N#C[C@@H]1CC(F)(F)CN1C(=O)CNC(=O)c1ccnc2c(NC(=O)[C@@H](N)CCCCNC(=O)CCOCCOCCOCCOCCOCCOCCNC(=O)CN3CCN(CC(=O)[O-])CCN(CC(=O)[O-])CCN(CC(=O)[O-])CC3)cccc12.[177Lu+3]  tracer uptake (U-87 MG tumour model; host not given, tumour; 4 h, tumour-bearing): 4.16 %ID/g

For quick reference, copied from above:
COC(=O)c1cccc(C(=O)c2c(C)[nH]c3ccccc23)n1  activity at 10 µM (AHR (Homo sapiens, UniProt P35869); reporter gene, agonist, XRE luciferase; HepG2; 10 µM; baseline: ITE): 41%
C=CC(=O)Nc1cccc(Cn2ncc3cnc(Nc4cnn(CCOC)c4)nc32)c1  binding (human ABL1(E255K)-phosphorylated; KINOMEscan; 100 nM; baseline: control): 6.1%
C=C1CC[C@H](OCCCNC(=O)CCOCCOCCOCCOCCOCCOCCOCCOCCOCCOCCOCCOCCOCCOCCOCCOCCOCCOCCOCCOCCOCCOCCOCCOCCOCCOCCOCCOCCOCCOCCOCCOCCOCCOCCOCCOCCNC(=O)CCN2C(=O)CC(SC[C@H](NC(=O)[C@H](Cc3ccccc3)NC(=O)[C@H](CC(N)=O)NC(=O)[C@H](Cc3c[nH]cn3)NC(=O)[C@@H](NC(=O)[C@H](CC(=O)O)NC(=O)[C@H](CCC(N)=O)NC(=O)[C@H](CC(C)C)NC(=O)[C@H](CCCCN)NC(=O)[C@H](CCCCN)NC(=O)[C@H](CCCNC(=N)N)NC(=O)[C@H](CC(C)C)NC(=O)[C@H](Cc3c[nH]c4ccccc34)NC(=O)[C@H](CCC(=O)O)NC(=O)[C@@H](NC(=O)[C@H](CCCNC(=N)N)NC(=O)[C@H](CCC(=O)O)NC(=O)[C@H](CCSC)NC(=O)[C@H](CO)NC(=O)[C@H](CC(N)=O)NC(=O)[C@H](CC(C)C)NC(=O)[C@H](Cc3c[nH]cn3)NC(=O)[C@H](CCCCN)NC(=O)CNC(=O)[C@H](CC(C)C)NC(=O)[C@H](CC(N)=O)NC(=O)[C@H](Cc3c[nH]cn3)NC(=O)[C@H](CCSC)NC(=O)[C@H](CC(C)C)NC(=O)[C@H](CCC(N)=O)NC(=O)[C@@H](NC(=O)[C@H](CCC(=O)O)NC(=O)[C@H](CO)NC(=O)[C@@H](NC(=O)[C@@H](N)CO)C(C)C)[C@@H](C)CC)C(C)C)C(C)C)C(=O)O)C2=O)C/C1=C/C=C1\CCC[C@]2(C)[C@@H]([C@H](C)CCCC(C)(C)O)CC[C@@H]12 (stereo partly drawn)  MRT (rat, plasma; subcutaneous, 30 µg/kg, single dose): 15.9 h
